Experimental data pooled from the literature.
Lines come from different studies, so protocols differ. Values joined by “and” are separate records of one study, mostly repeats; a detail may differ. Numbers after ± are the reported error.
ACHE: Acetylcholinesterase (ACHE, Homo sapiens, UniProt P22303)
PFF0160c E182D: Dihydroorotate dehydrogenase (quinone), mitochondrial (PFF0160c, Plasmodium falciparum, UniProt Q08210, E182D)

CCc1cc(O)cc2c(/C=N/NC(=N)NCCc3ccc(Cl)cc3)c[nH]c12
Emax (Relaxin-3 receptor 2 (RXFP4, Homo sapiens, UniProt Q8TDU9)): 99 ± 3%

[2H]c1c([2H])c([C@]2([2H])CCCN2C(=O)C(C)(C)Oc2ccc3cn[nH]c3c2)c([2H])c([2H])c1C([2H])([2H])[2H]
remaining binding (Non-receptor tyrosine-protein kinase TYK2, JH2 pseudokinase domain (TYK2, Homo sapiens, UniProt P29597); KINOMEscan; 1 µM; relative to: DMSO control): 76%

O=C(O[C@H]1C[C@H]2CC[C@@H](C1)[N+]21CCCC1)C(O)(c1ccccc1)c1ccccc1
activity class (ACHE; biochemical; concentration not given): inactive

CN(C(=O)n1cnc(-c2ccc[n+]([O-])c2)c1)C1CCCCC1
fold change (androgen-induced gene 1 protein (Rattus norvegicus, UniProt F7EZV5); enzyme activity, ABPP; rat, brain; oral, 100 mg/kg/day, 28 days; relative to: vehicle): -3.6

O=C1c2ccccc2C(=O)C1c1ccccc1
activity (Bile acid receptor (NR1H4, Homo sapiens, UniProt Q96RI1); concentration not given): inactive

Nc1ncc(-c2nc(N3CCOCC3)nc(N3CCOCC3)n2)c(C(F)F)n1
remaining binding (eIF-2-alpha kinase GCN2 (EIF2AK4, Homo sapiens, UniProt Q9P2K8, S808G); KINOMEscan; 10 µM): 71%

COc1ccc(N2C(=O)N(c3c(C)cccc3Cl)Cc3cnc(Nc4ccc(C5CCN(C)CC5)cc4OC)nc32)nc1
inhibition (Serine/threonine-protein kinase D3 (PRKD3, Homo sapiens, UniProt O94806); kinase activity; 0.5 µM): 28%

CC(=O)Nc1sc(C)c(C)c1CN1CCc2ccccc2C1
IC50 ratio (PFF0160c E182D; enzyme activity, DCIP colorimetric; relative to: E182D mutant over wild type): 5

O=C(Nc1cccnn1)N1CCC(=Cc2cccc(Oc3ccc(C(F)(F)F)cn3)c2)CC1
inhibition (atrial natriuretic factor receptor; concentration not given): -4%

NC(=O)c1ccc[n+]([C@@H]2O[C@H](COP(=O)(O)O)[C@@H](O)[C@H]2O)c1
Km (ALDH-137; substrate): 6.7 ± 0.2 mM

Cc1ccc2c(c1)C=CC21CCN(C2Cc3ccccc3CC2O)CC1 (racemic)
selectivity ratio (Vesicular acetylcholine transporter (Rattus norvegicus, UniProt Q62666); relative to: Ki sigma1 over Ki VAChT): 0.24

O=c1[nH]cnc2c([C@@H]3N[C@H](CO)[C@@H](O)[C@H]3O)c[nH]c12
ligand efficiency (uncharacterized protein (Trichomonas vaginalis, UniProt A2EYV3); inhibitor): 0.39

C[C@H]1CN(c2n[nH]c3nc(N[C@H]4CC[C@H](NS(=O)(=O)CCC(F)(F)F)CC4)ncc23)CCO1
relative abundance (Serine/threonine-protein kinase 17B (STK17B, Homo sapiens, UniProt O94768); inhibitor, Kinobeads competition profiling; 0.032 µM; relative to: vehicle): 1

CCOC(=O)COc1ccc2c(=O)c3ccccc3oc2c1
reaction velocity (Acetylcholinesterase (ache, Electrophorus electricus, UniProt O42275); enzyme activity; 0.84 µM, added: substrate 6.90 mM; higher = faster reaction): 0.0035 a.u.

CC(=O)N[C@@H](CSCCC=O)C(=O)O
Km (N-acyl-aromatic-L-amino acid amidohydrolase (carboxylate-forming) (Acy3, Mus musculus, UniProt Q91XE4); substrate, fluorescamine; added: Co2+ 0.1 mM): 0.71 mM

COc1ccc(Nc2nn3c(-c4ccccc4)ccnc3c2C(=O)Nc2ccc(Cl)cc2)cc1
abnormal band quantity (α-amylase isoenzymes; native PAGE densitometry; 1 mg/mL; relative to: untreated enzyme (band absent)): 9.27 a.u.

O=C(O)COP(=O)(O)O
Ki ratio (TPI1 (Saccharomyces cerevisiae, UniProt P00942, Y208F); enzyme activity, competitive inhibitor, GPDH/NADH-coupled; pH 5.7, 25 °C, ionic strength 0.1 NaCl, added: glyceraldehyde 3-phosphate substrate; relative to: mutant over wild type): 7730

C[N+](C)(C)[C@@H](Cc1c[nH]c(=S)[nH]1)C(=O)[O-]
Ka (Ergothioneine transport permease/ergothioneine binding protein EgtU, substrate-binding domain (egtU, Helicobacter pylori, UniProt B5Z7I3); ITC; 30 °C, substrate-binding domain): 496000 ± 307000 M⁻¹

O=C(Nc1cccc(CN2CCN(C(=O)c3ccccc3)CC2)c1)c1cccs1.O=C(O)C(F)(F)F
IC50 ratio (PFF0160c E182D; enzyme activity, DCIP colorimetric; relative to: E182D mutant over wild type): 4.9

CC12CCC(CC1)C(C)(C)O2
kcat (1,8-cineole 2-endo-monooxygenase (cinA, Citrobacter braakii, UniProt Q8VQF6); NADPH consumption, substrate; 200 µM, pH 7.8, room temperature, wild-type variant, 50 mM Tris, added: Fpr and Cdx): 4.22 ± 0.09 s⁻¹

Nc1ncnc2c1ncn2[C@@H]1O[C@H](COP(=O)(O)OP(=O)(O)OP(=O)(O)O)[C@@H](O)[C@H]1O
fluorescence ratio (matB (Rhodopseudomonas palustris, UniProt Q6ND88, C106A/K488A/Q457C/R286C); ATP binding; pH 7.5, 100 mM NaCl; relative to: bound over unbound): 3.1

O=C(Nc1cnccc1Cl)N1CCN(Cc2ccc3c(c2)OC(F)(F)O3)CC1
inhibition (KATP channel, hamster; binding; 10 µM, added: [3H]glyburide): 14%

COC(=O)[C@@]1(O)C[C@H]2O[C@]1(C)n1c3ccccc3c3c4c(c5c6ccccc6n2c5c31)C(=O)NC4
kinase activity (Mitogen-activated protein kinase 3 (MAPK3, Homo sapiens, UniProt P27361); ADP-Glo; 10 µM, added: MBP substrate): 0.823% and 8.98% and 2.01%

N[C@@H](Cn1oc(=O)[nH]c1=O)C(=O)O
activity (uncharacterized protein (Ixodes scapularis, UniProt A0A0N9E2I2); L-glutamate-like response, two-electrode voltage clamp; Xenopus laevis oocytes; 100 µM): inactive

COc1ccccc1NC(=O)CSc1nc2cccnc2n1-c1ccccc1OC
IC50 ratio (PFF0160c E182D; enzyme activity, DCIP colorimetric; relative to: E182D mutant over wild type): 0.4

Cl.Cn1c(=O)n(CCCCN2CCC3(CC2)OCc2ccccc23)c2ccccc21
Hill slope (Sodium-dependent dopamine transporter (Slc6a3, Rattus norvegicus, UniProt P23977); dopamine uptake, inhibitor; rat striatal synaptosomes; added: [3H]dopamine): -1.23

CC(=O)NC[C@H]1[C@H](O)[C@H](O)[C@@H]2[C@H](O)C[C@@H](CO)N21
inhibition (Spodoptera litura β-N-acetylglucosaminidase; crude enzyme; 0.00313 µM, run 1, added: p-nitrophenyl GlcNAc): 22.3%

CCN(CC)CCNc1ccc(CO)c2sc3ccccc3c(=O)c12
activity class (ACHE; biochemical; concentration not given): inactive

Clc1cc2c(cc1Cl)Oc1cc(Cl)c(Cl)cc1O2
EC20 (Uncharacterized protein (Takifugu rubripes, UniProt Q4JHL3); reporter gene, agonist, dual-luciferase; COS-7; 24 h): 0.66 ± 0.62 nM

Oc1ccc2ccc3cccc4ccc1c2c34
fold change (Aryl hydrocarbon receptor (Danio rerio, UniProt Q9YGV3); reporter gene, agonist, luciferase reporter; ZF-4; 1.524 µM; relative to: vehicle control): 1.02

CCN(CC)CCOC(=O)C(Cc1cccc2ccccc12)CC1CCCO1 (stereo not shown)
activity class (ACHE; biochemical; concentration not given): inactive

COc1cc(N)c(Cl)cc1C(=O)NC1CN2CCC1CC2 (stereo not shown)
log2 fold change (GPRC5C (Homo sapiens, UniProt Q9NQ84); β-arrestin recruitment, TANGO luminescence; concentration not given; relative to: basal luminescence): 0.298

Cc1cc(Nc2ccc(C)c(Cl)c2)n2ncnc2n1
IC50 ratio (PFF0160c E182D; enzyme activity, DCIP colorimetric; relative to: E182D mutant over wild type): 6.4

O=C(c1ccc(Cl)cc1)N1CCN2C(=O)N(OC(=O)N3CCOc4ccccc43)C(=O)C2C1 (stereo not shown)
mean protein ratio (Palmitoyl-protein thioesterase ABHD10, mitochondrial (Homo sapiens, UniProt Q9NUJ1); MS-based ABPP; SW-620 conditioned medium; 10 µM, 1 h, 37 °C; relative to: treated over control): 1.15

COC(=O)C1=CNC=C(C(=O)OC)C1c1ccc(Cl)c([N+](=O)[O-])c1
IC50 ratio (PFF0160c E182D; enzyme activity, DCIP colorimetric; relative to: E182D mutant over wild type): 1.2

COc1ccc2c3c([nH]c2c1)CCN(C)CC3.O=C(O)/C=C/C(=O)O
Hill coefficient (Neuronal acetylcholine receptor; alpha3/beta4 (Rattus norvegicus, UniProt P04757+P12392); ion current, inhibitor, two-electrode voltage clamp; Xenopus laevis oocytes, rat; added: 100 µM acetylcholine): 2.2 ± 0.3

CN1CCN(c2cc(-c3ccncc3)c(-c3ccc4ccccc4c3)nn2)CC1
inhibition (Galanin receptor type 1 (GALR1, Homo sapiens, UniProt P47211); antagonist, FLIPR; 10 µM): 6.3%
